Experimental data from different studies.
Parts stem from different laboratories: compare values within a part only.

Set 1
Target: Ras GTPase-activating protein-binding protein 1, full length (G3BP1, Homo sapiens, UniProt Q13283)
Sequence of UniProt Q13283 (whole entry, looked up): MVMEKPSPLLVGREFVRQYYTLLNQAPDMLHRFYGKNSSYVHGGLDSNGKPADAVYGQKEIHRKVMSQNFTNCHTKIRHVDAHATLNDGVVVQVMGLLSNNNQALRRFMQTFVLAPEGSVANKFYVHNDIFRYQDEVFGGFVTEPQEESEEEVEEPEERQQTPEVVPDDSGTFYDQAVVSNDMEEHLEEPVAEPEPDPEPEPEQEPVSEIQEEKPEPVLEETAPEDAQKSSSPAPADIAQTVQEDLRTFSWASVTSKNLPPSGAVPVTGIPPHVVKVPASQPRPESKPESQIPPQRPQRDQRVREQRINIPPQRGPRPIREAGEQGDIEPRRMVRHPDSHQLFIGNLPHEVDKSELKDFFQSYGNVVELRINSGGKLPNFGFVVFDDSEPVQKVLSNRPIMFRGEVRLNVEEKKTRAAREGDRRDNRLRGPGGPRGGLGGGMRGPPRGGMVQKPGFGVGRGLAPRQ
Technique: RNA Bind-n-Seq
Form: RNA
Sample: in vitro
Tested at: 200 nM
Notes: whole 134-nt RNA, ends assumed
Added: 150 mM LiCl
Baseline: input library
Direction: higher = stronger binding
All molecules: 7-deaza-guanosine replaces G
Shared flanks, not repeated: GGGAGUUCUACAGUCCGACGAUC … UGGAAUUCUCGGGUGUCAAGG
Strand | log2 enrichment
GCAGGAAGUAAAAACAAAUGGAAAUGCUUCGGAUAGUGGCAGGGGUGGGGGUUGCUAAGGAAAGAGUGGGAUGGGAGUGGGUAAAGAGUU | 0.202
CAAGUCCUGUGCUACACAUCGUAUGUACCGAAUCGGCCCCGGGCCCCGGCCCCGGGAAAGUAUUAUGUUACGCCGUUCGGAUCUGCACUU | -0.313
UCUCCCCAGGAGCACAGAAAAUGGUUCUGCCCCCUCCACAGCUCCCACAGACCAGAGCCGGCCACCGUUGGAGGUGAGUCGCCCGCCCCU | 0.866
CUGUGCUACACAUCGUAUGUACCGAAUCGGGUUUUUUUGGGGUUUUUUUGGUUUUUUUGGGGAAAGUAUUAUGUUACGCCGUUCGGAUCU | 1.4
UACUCUUUGAUUUAUCAAAUGUGUUCAGUUGGAGAAUCGUCCUCAGGAAAGGCUUCAAGGAGCCUUGCACAGCAUAUUCCUGGCCCUGGU | -1.5
CAAGUCCUGUGCUACACAUCGUAUGUACCGAAUCGGCCCCGGCCCCGGGCCCCGGGAAAGUAUUAUGUUACGCCGUUCGGAUCUGCACUU | -1.02
GUCCUGUGCUACACAUCGUAUGUACCGAAUCGGAAAAAGGGGAAAAAGGAAAAAGGGGAAAGUAUUAUGUUACGCCGUUCGGAUCUGCAC | 0.0686
CACAGACAACACGCACCCACACAGACACAGAGGGAAGGGGUUGGGAUGGGGACAGGGUGCACUGCAGGGCGGGGUAGGACCCCAGCCCCU | -0.393
GAAAAUUUCUCAGUUCUUAAGAAUGCUUGCUGUGGGUAUAGUGCAGGUAUAUUGAAAGGAAUUUUUUUCUUGCAGCGGGAAAGAGACAUG | -2.62
ACCAUGCAGGUGGGCAUCUUUGGGAAGUGGGGCAAGGGGGGGAUAGGGAGGGGGGUAACACUUUGGGAACAGGUAGUCCCAGGUCGUUUC | 0.118
CACAGACAACACGCACCCACACAGACACAGAGGGAAGGGGUUGGGAUGGGGACAGGGUGCACAUCAGGGCGGGGUAGGACCCCAGCCCCU | 0.0338

Set 2
Target: Histone acetyltransferase KAT6A, winged helix 1, GST fusion (KAT6A, Homo sapiens, UniProt Q92794, residues 1-85)
Technique: protein binding microarray
Form: double-stranded DNA, one strand shown
Sample: in vitro
Tested at: not given
Notes: 8-mer, flanks averaged, mean of 2 arrays, mostly near background
Baseline: not given
Direction: higher = stronger binding
Target sequence (chain): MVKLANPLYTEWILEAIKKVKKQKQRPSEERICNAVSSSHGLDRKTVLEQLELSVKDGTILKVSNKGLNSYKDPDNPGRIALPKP
Strand | E-score
AATTTGCG | 0.0536
ACCTGAAC | -0.293
CGCATGCG | 0.349
ATAGCATC | -0.0839
AATAACAA | -0.256
CGCCACCA | 0.194
ACATTATA | -0.141
GCGGGTAC | 0.313
ACACTGAG | -0.0803
CCGGCAGG | 0.168
ACACTAGG | 0.0405
AGGACAAC | -0.226
CCACTGAC | -0.123
GGGCTAAA | -0.0351
AGAGGTTA | -0.0462
CGGTGACC | 0.0645
TCGCAGCA | -0.078
CTATGGAC | 0.0551
ATGAAACC | -0.013
AGGCGGAG | 0.226
ACTAAACC | 0.0263
CGGGGTTA | 0.331
AGGCACCC | -0.0501
CAGTTGAG | -0.264
CATGAAGG | -0.116

Set 3
Target: RNA binding protein fox-1 homolog 2, RRM domain, GST-SBP tag (RBFOX2, Homo sapiens, UniProt O43251-10, residues 100-194)
Technique: RNA Bind-n-Seq
Form: RNA
Sample: in vitro
Tested at: 365 nM
Notes: natural RNA segment, single round, ends assumed
Baseline: no-protein control
Direction: higher = stronger binding
Shared flanks, not repeated: GGGAGUUCUACAGUCCGACGAUC … UGGAAUUCUCGGGUGCCAA
Target sequence (chain): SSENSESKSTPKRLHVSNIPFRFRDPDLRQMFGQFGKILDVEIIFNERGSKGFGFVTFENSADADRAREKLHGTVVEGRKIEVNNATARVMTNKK
Strand | RBNS enrichment (R)
CGUUUUACAAAGGAUGAUCCGACAGUGUGUCGACAUAAACUUUUACAACUGCACAGCAGCCAAAAAAGAAAAAAAAGAAAAAAAAAAACUUUAACUGGACGGACGUUGUU | 0.432
CAGUGCUCCCUCACAUGUCAGUACCUUCAAACUAGGGCCAAGCCCAGCACUGCUUGAGGAAAACAAGCAUUCACAACUUGUUUUUGGUUUUUAAAACCCAGUCCACAAAA | 0.638
ACAUGUAAUGAAAUUGUAGAUAAAGUGUAGUGCAUUGAAACAAAUGAACAAAAAGUAGAUACUUUUACUAUACAAGGGUGCUGGUGCAGAAAAAAAUAUAUAUAUUUUUG | 0.525
CAGACACUCUUUUAGACCAGCUGGACACUCAGCUCAAUGUCACUGAGAAUGAAUGUCAGAACUACAGACGCUGUUUGGAGAUCCUAGAGCAGAUGAAUGAGGAUGACAGU | 0.635
AUUCAAACCUUCCGGGGCUGUGACCUUCAAAGCUGUGUAAAUCAGUGUCAAGCACAUUAUAGUGUUUGCCCUCACAGGAAAAAAAAAAAAGUCCCCUGUUCUGAAAACAG | 0.279
UUUUGCUCCCUAUUUUAUGCUUUUUAAAAAUCUUUCACAGUGACUCACUUGAUUGAGCAUAUUGAUUUGAAAGAGCUAAGAUUUUCCUGCUUAAUGUCAGCCAUUGGCUC | 0.399
GCCUCUAGACACUUGACUUACGAUCGUUAUUCCCCCAAUUCAUCAUAUUUUGUUUGUUAUCACCAGAGAUGCCUGAACUCAGUUAAGCGAGCAAUUGCUAGUUGUCUUGA | 1.11
UCCCUCAGGCUGGAGCUUAGCUCAGUGCAGCCUCCAACUCCUGGGCUCAAGCAAUCCUCCCACUUUAGCCUCCUGAGUAGCUGGGACUACAGGCGUGUGCCAGCGCGCCU | 0.363
UUAUAUUUGUUCGGGUGCCACCUUCCACCAGCUUACCACUACGGUAGAACUGUCAAAUUCAUCUCCCUGAAUUUGUCUUAAAGGGGUGUCCAUGCACAGGCCCAAGAGUC | 0.303
UUUUAAUUCAAUCAUACACACAUAAUCCUUUGUAAUCAUUUUUCUUUUAAGUGAGGAUAUCUACUGUCUGCUUCAUAGGGUGCUUUGCAAUAAAAUGAAAACGUAUUUAU | 0.421
AAAGACCCAACUCCGGAGGCCUACCUCCUGUGUACCCUCAGAGAGGGCAAUGUCACCCUCCUGGUAGGUAGUCCUAGACCCCUCCUGCCUCUUGCUCUCCAAUGGGGAGA | 0.349
UAGAACACAGUAUACCUAUAGUAUACCUAUGUGUUUAUUAUGUUUGUAAAUGGUAACUGACAUUUAAUUAUUAGAAGUACUUACCCCUGCCUUCCUCCAUUUUUAUUCAU | 0.457

Set 4
Target: Max-binding protein MNT, bHLH-zipper, MAX partner unstated (MNT, Homo sapiens, UniProt Q99583, residues 220-300)
Technique: protein-binding microarray
Form: double-stranded DNA, one strand shown
Sample: in vitro
Tested at: not given
Notes: k-mer, scored over probes, only values ≥0.25
Direction: higher = stronger binding
Construct (chain): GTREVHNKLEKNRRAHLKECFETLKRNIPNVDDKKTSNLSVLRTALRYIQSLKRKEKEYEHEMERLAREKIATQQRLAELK
Strand | E-score
CCACGCCA | 0.348
AATGGCAT | 0.259
GCATGTAA | 0.316
AGCACGAG | 0.398
ATGCGACA | 0.252
AAATGTGC | 0.29
ATGACATG | 0.303
ACGCATGA | 0.333
ACGAGCGT | 0.25
CCCACGGG | 0.282
GTACACGA | 0.348
CGCGTGGA | 0.455
CATGGGGG | 0.37
CACGGTGC | 0.336
CGTGTCAA | 0.32
ACACGCGC | 0.446
CCACACGC | 0.389
CACACGCC | 0.317
AGTGCATG | 0.319
CGTGACCC | 0.375
ACGTCACG | 0.292
ATGTGTAC | 0.262
ATCACACG | 0.36

Set 5
Target: Sal-like protein 4, full length isoform A (SALL4, Homo sapiens, UniProt Q9UJQ4, residues 1-1053)
Sequence of UniProt Q9UJQ4 (whole entry, looked up): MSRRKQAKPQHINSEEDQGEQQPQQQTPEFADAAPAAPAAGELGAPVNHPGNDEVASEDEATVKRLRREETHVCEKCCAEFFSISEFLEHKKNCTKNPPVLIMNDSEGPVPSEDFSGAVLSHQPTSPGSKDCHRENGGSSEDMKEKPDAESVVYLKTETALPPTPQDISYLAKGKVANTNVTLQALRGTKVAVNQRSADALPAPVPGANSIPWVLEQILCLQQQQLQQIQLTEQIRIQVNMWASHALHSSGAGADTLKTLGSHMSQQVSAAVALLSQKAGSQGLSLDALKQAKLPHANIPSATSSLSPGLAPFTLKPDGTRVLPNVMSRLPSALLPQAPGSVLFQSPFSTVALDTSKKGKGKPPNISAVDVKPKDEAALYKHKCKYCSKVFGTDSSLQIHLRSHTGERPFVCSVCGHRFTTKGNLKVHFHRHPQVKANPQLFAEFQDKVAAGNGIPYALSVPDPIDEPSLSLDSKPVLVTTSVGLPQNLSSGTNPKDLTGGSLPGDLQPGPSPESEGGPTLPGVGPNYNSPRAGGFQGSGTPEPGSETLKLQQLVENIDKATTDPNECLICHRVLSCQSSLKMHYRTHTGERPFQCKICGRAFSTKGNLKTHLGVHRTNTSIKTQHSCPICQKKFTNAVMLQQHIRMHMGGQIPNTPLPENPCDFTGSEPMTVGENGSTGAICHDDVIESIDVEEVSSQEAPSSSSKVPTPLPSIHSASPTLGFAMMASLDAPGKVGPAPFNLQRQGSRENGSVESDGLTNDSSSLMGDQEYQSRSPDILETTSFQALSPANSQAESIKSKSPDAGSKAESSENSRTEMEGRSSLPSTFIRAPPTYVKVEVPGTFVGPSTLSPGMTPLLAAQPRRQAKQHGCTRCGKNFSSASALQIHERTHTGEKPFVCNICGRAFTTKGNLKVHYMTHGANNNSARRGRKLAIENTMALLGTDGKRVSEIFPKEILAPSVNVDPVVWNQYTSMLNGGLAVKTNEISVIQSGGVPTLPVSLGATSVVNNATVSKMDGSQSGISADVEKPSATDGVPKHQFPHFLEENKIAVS
Technique: universal PBM
Form: double-stranded DNA, one strand shown
Sample: in vitro
Tested at: 600 nM
Notes: 8-mer, flanks averaged, mean of replicates
Direction: higher = stronger binding
Strand | E-score
CAACGTAA | 0.103
TAGCCTAA | -0.00219
AGCACCGA | -0.0838
CAGGCTGG | -0.316
TACGCGAA | 0.053
AATCGTTA | 0.227
CCTGTAAG | -0.0486
ACCTGTCG | -0.0946
GCATAGCC | -0.155
ATCAAGGC | 0.0204
GATTCCCA | -0.103
ACGAACCC | -0.273
CTCATCGA | -0.0723
CCTCATCG | -0.0415
CCGCATAC | -0.108
CGATAGGC | 0.0684
ATGTCGCG | -0.0614
TCTGTAAA | 0.236
CACTGGGC | -0.35
AGGGAACT | -0.269

Set 6
Target: TAR DNA-binding protein 43, full length, His tag (TARDBP, Homo sapiens, UniProt Q13148, residues 1-414)
Technique: RNA Bind-n-Seq
Form: RNA
Sample: in vitro
Tested at: 20 nM
Notes: 6-mer, flanks averaged, single round
Added: 150 mM KCl
Baseline: input library
Direction: higher = stronger binding
Strand | 6-mer enrichment (R)
UAUAAU | 0.773
CCAAGU | 0.685
AGGUGA | 1.41
ACCUAA | 0.612
AAUUCU | 0.592
GCAUCC | 0.673
GAUGAC | 0.848
UUUGAU | 0.635
UCCGCC | 0.615
GCCAAG | 1.12
GAUAAG | 0.957
ACUGUA | 0.713
CGUCGU | 0.758
GAGUAU | 0.92
UGUCCC | 0.666
UACAAA | 0.64
UGUUUC | 0.645
UCCAGU | 0.652
CCCCUU | 0.696
CCACUA | 0.609
AAUUAU | 0.719
GGAGGC | 3.61
GCAACG | 1.12
GCGUAC | 0.866
CAGAAC | 0.704
